Measured values from different studies.
Lines come from different studies, so protocols differ. ± gives the spread as reported. Ends that are not written are not given here. * marks the point of attachment.

| Substance | assay | test system | conditions | scale | endpoint | result |
| --- | --- | --- | --- | --- | --- | --- |
| COc1ccc(-c2nc3ccccc3s2)cc1OCc1nnc(-c2cc([N+](=O)[O-])cc([N+](=O)[O-])c2O)o1 | seizure protection | albino mouse, scPTZ-induced seizure | ip, 0.5 h |  | minimal effective dose | 30 mg/kg |
| Nc1ccc2ccc3c4ccccc4ccc3c2c1 | inducer | female rat, liver | oral, 10 mg, 24 h, sesame oil vehicle |  | menadione reductase activity | 104 enzyme units |
| CCN(CC)c1ccc2nc3ccc(N=Nc4ccc(N(C)CCCC(=O)NCCCC[C@@H](NC(=O)CNC(=O)[C@H](CCCNC(=N)N)NC(=O)[C@@H](NC(=O)CNC(=O)[C@H](CC(C)C)NC(=O)[C@@H]5CCCN5C(=O)CNC(=O)CCCCC[N+]5=C(C=CC=CC=C6N(CC)c7ccc8c(S(=O)(=O)[O-])cc(S(=O)(=O)O)cc8c7C6(C)C)C(C)(C)c6c5ccc5c(S(=O)(=O)[O-])cc(S(=O)(=O)O)cc65)C(C)C)C(=O)NCC(=O)NCC(=O)NCCOCCOCCOCCOCCOCCOCCOCCOCCOCCOCCOCCO)cc4)cc3[n+](-c3ccccc3)c2c1 | ex vivo fluorescence imaging | nude mice SCC-7 tumour | iv, 10 nmol/mouse, 2 h |  | tumour to muscle ratio | 7.92 ± 1.3 |
| CCCCCCOC(=O)/C=C/c1ccc(O)c(O)c1 | DPPH | ethanol | 20 µM, 30 min, room temperature |  | radical scavenging | 67% |
| Cc1cc(C)c(/C=C2\C(=O)Nc3ccccc32)[nH]1 |  | human, pediatric refractory CNS tumours | dose not given, stratum I | reference: patients | sustained stable disease | 25% |
| COc1ccc(-c2nc3ccccc3s2)cc1OCc1nnc(-c2ccc(O)cc2)o1 | hind limb tonic extension | albino mouse, MES-induced seizure | ip, 4.0 h |  | minimal effective dose | 30 mg/kg |
| CN(C(=O)c1c(Oc2ccc(F)cc2)nc2ncccn12)c1ccc(Cl)cc1 |  | mouse C57BL/6J diet-induced obese | oral, 9 mg/kg once daily, week 4, AUC 0 to 120 min, together with: sitagliptin 1 mg/kg | reference: vehicle | OGTT glucose AUC reduction | 16.6% |
| COc1cc2c(cc1OC)C(=O)C(CC1CCN(Cc3ccccc3)CC1)C2 (centres unmarked) | Morris water maze | male Swiss mice, scopolamine model | oral, 5 mg/kg, day 7, together with: scopolamine 1.5 mg/kg i.p. | reference: scopolamine alone | time in target quadrant | increased |
| c1ccc2c(c1)ccc1c3ccccc3ccc21 | inducer | female rat, liver | oral, 10 mg, 24 h, sesame oil vehicle |  | menadione reductase activity | 38.2 enzyme units |
| CC(=O)O[C@H]1[C@H]2[C@H]([C@@H]3[C@@H](O)[C@@H]4[C@H]([C@H](C)[C@H]5O[C@]56OC(=O)[C@@](C)(O)[C@]46C)[C@@]3(C)[C@H]1OC(C)=O)[C@@H](OC(=O)CC(C)C)C(=O)[C@H]1C[C@@H]3O[C@@H]3[C@H](OC(C)=O)[C@]21C |  | mice with NCI/ADR-RES xenograft | intratumoral, 20 µg, tumour reached 1500 mm3 from 338-450 mm3 |  | time to tumour volume | 19 to 38 days |
| CS/C(S)=N/CCCC[S+](C)[O-] (racemic) | RT-PCR, refers to: Gstp1 | rat, colon | oral gavage, 200 mg/kg, 96 h, dosed for four days | reference: vehicle | mRNA fold change | 2.52 |
| O=C1O[C@H]([C@@H](O)CO)C(O)=C1O | ABTS scavenging, absorbance |  |  |  | EC50 | 2110 µM |
| CC(=O)CC(c1ccccc1)c1c(O)c2ccccc2oc1=O (centres unmarked) |  | human | 25 mg single dose, 0 to 168 h |  | AUC of prothrombin time | 2480 ± 246 s h |
| SIIVFEKL | flow cytometry, refers to: CD44hi CD8+ T cells | peptide, OT-I CD8+ T cells, mouse | dose not given, primed 5 days, TGF-β1 from day 2 onward, together with: 20 ng/mL TGF-β1 |  | IL-2 only cells | 17.6% |
| COc1ccc(-c2nc3ccccc3s2)cc1OCc1nnc(-c2ccccc2)o1 | seizure protection | albino mouse, scPTZ-induced seizure | ip, 0.5 h |  | minimal effective dose | 30 mg/kg |
| CCCCC[C@H](O)/C=C/[C@H]1[C@H](O)CC(=O)[C@@H]1C/C=C\CCCC(=O)O |  | human airway smooth muscle cells | 10 µM, 5 min, Ca2+-free buffer |  | Ca2+ store content | no effect |
| O=C1NC(=O)C(c2ccccc2)(c2ccccc2)N1 | seizure protection | albino mouse, scPTZ-induced seizure | ip, 4.0 h |  | minimal effective dose | 30 mg/kg |
| insulin aspart | euglycaemic clamp | type 1 diabetes patients | subcutaneous, 0.2 U/kg single, 2 h to 12 h, antibody quartile 3, 6.65-15.68 %B/T |  | AUC glucose infusion rate | 815 mg/kg |
| COc1ccc(-c2nc3ccccc3s2)cc1OCc1nnc(-c2c(OC)cccc2OC)o1 | hind limb tonic extension | albino mouse, MES-induced seizure | ip, 0.5 h |  | minimal effective dose | 100 mg/kg |
| Palmitoyl-SMTSCAPS (N-palmitoyl; Palmitoyl = CCCCCCCCCCCCCCCC(=O)*) |  | AsPC-1, male SCID mice, subcutaneous AsPC-1 xenograft | intratumoral, 500 µg/mouse/day, 3 weeks |  | tumour weight | 334 ± 47.5 mg |

For quick reference, copied from above:
| Substance | assay | test system | conditions | scale | endpoint | result |
| --- | --- | --- | --- | --- | --- | --- |
| O=C1NC(=O)C(c2ccccc2)(c2ccccc2)N1 | seizure protection | albino mouse, scPTZ-induced seizure | ip, 4.0 h |  | minimal effective dose | 30 mg/kg |
| CS/C(S)=N/CCCC[S+](C)[O-] (racemic) | RT-PCR, refers to: Gstp1 | rat, colon | oral gavage, 200 mg/kg, 96 h, dosed for four days | reference: vehicle | mRNA fold change | 2.52 |
